Literature values, collected from citations in different studies.
Each line is one published result; not all experiments were run side by side. ± marks the error that the study gave.

`CC(C)Nc1nc2cc(Cl)c(Cl)cc2n1[C@H]1O[C@@H](CO)[C@H](O)[C@@H]1O` — result for “resistance fold change”: 4.5 fold (human cytomegalovirus; viral replication; UL97 F342Y mutant; concentration not given; reference: wild type).
Under “IC50 fold increase”, `O=C(NCCN1CCCC1)c1cc(-c2ccc(CN3CCOCC3)cc2)nc2ccc(F)cc12` is recorded as 40 fold (Plasmodium falciparum; 3D7 P754A mutant; reference: parental strain).
The MIC of `CC[C@H]1OC(=O)[C@H](C)[C@@H](O[C@H]2C[C@@](C)(OC)[C@@H](O)[C@H](C)O2)[C@H](C)[C@@H](O[C@@H]2O[C@H](C)C[C@H](N(C)C)[C@H]2O)[C@](C)(O)C[C@@H](C)C(=O)[C@H](C)[C@@H](O)[C@]1(C)O` is reported as 32 µg/mL (Streptococcus pneumoniae; E-test; strain 700676 serotype 14 resistant).
`CC1(C)NC(=O)N(c2ccc(F)c(C(F)(F)F)c2)C1=O`: “worm burden reduction” 64% (Schistosoma mansoni; juvenile, infected mice; oral, 100 mg/kg single dose).
`CC1(C)S[C@@H]2[C@H](NC(=O)Cc3ccccc3)C(=O)N2[C@H]1C(=O)O` gave an MIC of 4 µg/mL (Streptococcus pneumoniae; E-test; strain 700678 serotype 19A resistant).
`CCCCCCCCCCCCCCCCn1cc[n+](Cc2ccccc2)c1C.[I-]` has an MBEC of 46.9 µM (Staphylococcus aureus; biofilm eradication, Calgary biofilm device; MRSA BAA-1707).
Under IC50, `O=S(=O)([O-])C(F)(F)C(F)(F)C(F)(F)C(F)(F)C(F)(F)C(F)(F)C(F)(F)C(F)(F)F.[Li+]` is recorded as “inactive” (CYP1A2; inhibitor; Tox21 screening).
The MIC of `CC[C@H](C)CCCCC(=O)N[C@@H](CCN)C(=O)N[C@H](C(=O)N[C@@H](CCN)C(=O)N[C@H]1CCNC(=O)[C@H]([C@@H](C)O)NC(=O)[C@H](CCN)NC(=O)[C@H](CCN)NC(=O)[C@H](CC(C)C)NC(=O)[C@@H](CC(C)C)NC(=O)[C@H](CCN)NC1=O)[C@@H](C)O` is reported as 8 µg/mL (Klebsiella pneumoniae; 497).
The EC50 of `COc1cccc(N2CCN(C3=Nc4c(F)cccc4[C@H](CC(=O)O)N3c3cc(C(F)(F)F)ccc3OC)CC2)c1` is reported as 102 nM (human cytomegalovirus; viral replication; UL56 V236M mutant).
For `Nc1ccc(O)c(C(=O)O)c1`, “reduction of polyP accumulation” read 50 to 60% (bacteria; 100 µM).
`Oc1c(Br)cc(Br)c2nc3ccccc3nc12` has an MBEC of 100 µM (Staphylococcus aureus; MRSA 20, biofilm).
`Cc1cn(-c2ccc3c(c2)CN(c2ncc(Cc4ccc(-n5cccn5)cc4)s2)CC3)c(C)n1` has an EC50 of 466 ± 20.3 nM (human cytomegalovirus; viral replication).
`CNC(CC(C)C)C(=O)NC1C(=O)NC(CC(N)=O)C(=O)NC2CNC3C(=O)NC(C(=O)NC(C(=O)O)c4cc(O)cc(O)c4-c4cc3ccc4O)C(O)c3ccc(c(Cl)c3)Oc3cc2cc(c3OC2OC(CO)C(O)C(O)C2OC2CC(C)(N)C(O)C(C)O2)Oc2ccc(cc2Cl)[C@@H]1O` (stereo partly drawn) has a potency reduction of about 30 fold (vancomycin-sensitive bacteria; concentration not given; reference: vancomycin).
Under activity, `O=C(O)C(F)(F)C(F)(F)C(F)(F)C(F)(F)C(F)(F)C(F)(F)C(F)(F)C(F)(F)C(F)(F)C(F)(F)F` is recorded as “inactive” (CYP1A2; concentration not given).
`CC(C)CCCCCCCCC[C@@H]1CC(=O)N[C@@H](CCC(=O)O)C(=O)N[C@@H](CC(C)C)C(=O)N[C@H](CC(C)C)C(=O)N[C@@H](C(C)C)C(=O)N[C@@H](CC(=O)O)C(=O)N[C@H](CC(C)C)C(=O)N[C@@H](CC(C)C)C(=O)O1`: “antiviral concentration range” 15 to 50 µg/mL (porcine epidemic diarrhea virus; epithelial cells; range over).
`CN1CC[C@H](c2c(O)cc(O)c3c(=O)cc(-c4ccccc4Cl)oc23)[C@H](O)C1` has an EC50 of under 10 nM (HIV-1; viral replication).
The MIC of `C/C(=C\C(=O)OCCCCCCCCC(=O)O)C[C@@H]1OC[C@H](C[C@@H]2O[C@H]2[C@@H](C)[C@H](C)O)[C@@H](O)[C@H]1O` is reported as 0.25 µM (Staphylococcus aureus; Newman).
`N/C(CC(O)c1cc2c(F)cc(F)cc2c2cc(C(F)(F)F)ccc12)=N\c1ccc(F)cc1` (stereo not drawn) gave an IC50 of 3.5 ± 2.4 nM (Plasmodium falciparum; Dd2).
`Cc1ncc([N+](=O)[O-])n1CCO`: “minimal lethal concentration” 25 µg/mL (Trichomonas gallinae; MTT).
The MIC of `CN[C@H](CC(C)C)C(=O)N[C@H]1C(=O)N[C@@H](CC(N)=O)C(=O)N[C@H]2C(=O)N[C@H]3C(=O)N[C@H](C(=O)N[C@H](C(=O)O)c4cc(O)cc(O)c4-c4cc3ccc4O)[C@H](O)c3ccc(c(Cl)c3)Oc3cc2cc(c3O[C@@H]2O[C@H](CO)[C@@H](O)[C@H](O)[C@H]2O[C@H]2C[C@](C)(N)[C@H](O)[C@H](C)O2)Oc2ccc(cc2Cl)[C@H]1O` is reported as over 32 µg/mL (Lactobacillus sp.; HM-102).
The post-antibiotic effect of `Cc1c(CN(C)C(=O)/C=C/c2cnc3c(c2)CCC(=O)N3)oc2ccccc12` is reported as 0.1 ± 0.1 h (Staphylococcus aureus; MSSA 29213; 32 x MIC, 4 h, 35 °C).
`Cn1c(Cn2ccc(C(F)(F)F)c(Oc3cc(Cl)cc(C#N)c3)c2=O)n[nH]c1=O` has an EC95 of 42 nM (HIV-1; viral replication; K103N mutant; 50% human serum).
With `CNCCN(C)C(=O)Oc1c(Br)c(C)nc(C)c1-c1ccc(Oc2ccc(OC(F)(F)F)cc2)cc1` the IC50 was 110 nM (Plasmodium falciparum; whole cell extended time; 3D7; 72 h).
`Cl.N=C(CC(O)c1cc2c(F)cc(F)cc2c2cc(C(F)(F)F)ccc12)Nc1ccc(F)c(F)c1` (stereo not drawn): “mean survival time” 30 days (Plasmodium berghei; ANKA, mouse; oral, 50 mg/kg, 4 doses).
`CN[C@H](CC(C)C)C(=O)N[C@H]1C(=O)N[C@@H](CC(N)=O)C(=O)N[C@H]2C(=O)N[C@H]3C(=O)N[C@H](C(=O)N[C@H](C(=O)O)c4cc(O)cc(O)c4-c4cc3ccc4O)[C@H](O)c3ccc(c(Cl)c3)Oc3cc2cc(c3O[C@@H]2O[C@H](CO)[C@@H](O)[C@H](O)[C@H]2O[C@H]2C[C@](C)(N)[C@H](O)[C@H](C)O2)Oc2ccc(cc2Cl)[C@H]1O` gave an MIC of 1 to 3 µM (Staphylococcus aureus; clinical isolates).
`Nc1ccn(C[C@@H](CO)OCP(=O)(O)O)c(=O)n1` — result for “EC50 fold change”: about 6.5 fold (human cytomegalovirus; viral replication; UL54 A987G mutant; reference: wild type).
For `COc1ccc(C[C@H]2NC[C@H](O)[C@H]2OC(C)=O)cc1`, the IC50 was 4700 nM (Naegleria).
The IC50 of `CCCCCCCc1cc(=O)c2ccccc2[nH]1` is reported as 320 nM (Plasmodium falciparum; whole cell extended time; 3D7; 72 h).
`Nc1nc(O)c2ncn(COC(CO)CO)c2n1` has an EC50 of 9900 nM (human cytomegalovirus; viral replication; UL97 A549V mutant).
The MIC of `CO/N=C(\C(=O)N[C@@H]1C(=O)N2C(C(=O)O)=C(COC(C)=O)CS[C@H]12)c1csc(N)n1` is reported as 0.03 µg/mL (Streptococcus pneumoniae; E-test; strain 700676 serotype 14 resistant).
